Assay results gathered from unrelated publications.
Compare with care: the assays were run in different laboratories.
Matrix: plasma
Route: oral

CCn1c(C(=O)c2cc(C)cc(C#N)c2)c(C(C)C)c(=O)[nH]c1=O — AUC (human; 300 mg, multiple doses, once daily, steady state, healthy volunteers): 6810 ng·h/mL
CN1C(=O)[C@@H](NC(=O)c2nnc(Cc3ccccc3)[nH]2)COc2ccccc21 — AUC (male human; 120 mg twice daily, multiple doses): 7220 ng·h/mL
O=C(O)C[C@H](O)C[C@H](O)/C=C/c1c(C2CC2)nc2ccccc2c1-c1ccc(F)cc1 — AUC (male human; 2 mg, multiple doses, once daily, steady state): 248 ng·h/mL
C[C@@H](N)c1cc(Cl)ccc1Cn1c(=S)[nH]c(=O)c2[nH]ccc21 — AUC (human; 2.5 mg, multiple doses, once daily, healthy volunteers): 0.235 µM·h
Nc1ccc(-c2nc([C@H]3CCc4cc(-c5cc(Cl)ccc5-n5cnnn5)cc(=O)n43)c(F)[nH]2)c(F)n1 — AUC (human; 20 mg, single dose, fasted): 2110 ng·h/mL
CNCc1ccc(-c2[nH]c3cc(F)cc4c3c2CCNC4=O)cc1 — AUC (human; 300 mg, single dose, fasted): 5320 ng·h/mL
O=C(O)COC[C@H]1CC[C@H](COC(=O)N(c2ccccc2)c2ccc(Cl)cc2)CC1 — AUC (human; 40 µg, multiple doses, twice daily, steady state): 25.5 ng·h/mL
CCN1C(=O)CNc2ncc(-c3ccc(-c4nc[nH]n4)nc3C)nc21 — AUC (human; 16 mg, patients): 551 ng·h/mL
Cc1ccc(-c2cc(C(F)(F)F)nn2-c2ccc(S(N)(=O)=O)cc2)cc1 — AUC (human; 100 mg, single dose, fasted): 3090 ng·h/mL
Oc1ccc2c3c(cnc2c1)-c1ccc(C(F)(F)F)cc1O[C@@H]3c1ccc(OCCN2CC(CF)C2)cc1 — AUC (female human; 400 mg, single dose, fasted, healthy volunteers): 3270 ng·h/mL

Excerpt of the above:
CCn1c(C(=O)c2cc(C)cc(C#N)c2)c(C(C)C)c(=O)[nH]c1=O — AUC (human; 300 mg, multiple doses, once daily, steady state, healthy volunteers): 6810 ng·h/mL
